Experimental data from different studies.
Lines come from different studies, so protocols differ. ± gives the spread as reported.
Cell line: HEK293

Compound	assay	conditions	how to read	endpoint	value
CCCCCc1ccc(-c2cc3ccccc3[nH]2)cc1	cell growth or viability	50 µM	–	viability	86.6%
CN(Cc1cnc2nc(N)nc(N)c2n1)c1ccc(C(=O)N[C@@H](CCC(=O)O)C(=O)O)cc1	cell growth or viability, MTT	24 h	–	IC50	38 µM
CC[C@H](C)[C@H](NC(=O)OCc1ccccc1)C(=O)N[C@@H](CCC(=O)OC(C)(C)C)C(=O)N[C@@H](C)C(=O)N[C@H](C=O)CC(C)C	cell growth or viability, ATP luminescence	24 h	–	IC50	0.373 µM
Clc1ccc(-c2cc3ccccc3[nH]2)cc1Cl	cell growth or viability	50 µM	–	viability	115%
Nc1nc2c(ncn2[C@@H]2O[C@H](COP(=O)(O)OP(=O)(O)OP(=O)(O)OC[C@H]3O[C@@H](n4cnc5c(N)ncnc54)[C@H](O)[C@@H]3O)[C@@H](O)[C@H]2O)c(=O)[nH]1	luciferase reporter	mRNA capped with cpd	relative to: m7GpppG-capped mRNA	relative protein expression	0.45 ± 0.21
Nc1ccc2[nH]c(-c3ccccc3)cc2c1	cell growth or viability	50 µM	–	viability	73.8%
CCCCCCCCCCn1cc(COc2nc3c(c(=O)n(C)c(=O)n3C)n2C)nn1	cell growth or viability, MTT	24 h	–	IC50	194 µM
Nc1nc2nc[nH]c2c(=S)[nH]1	cell viability, MTT	48 h, low affinity phase	–	EC50	1410 µM
CCN(CC)CCOC(=O)C(c1ccccc1)C1CCCCC1 (stereo not drawn)	–	–	–	nonspecific calcium flux concentration	> 500 µmol/L
CCN(CC)CCCC(C)Nc1ccnc2cc(Cl)ccc12 (stereo not drawn)	oxygen consumption	–	–	IC50	> 12 µM
Nc1nc(Cl)nc2c1ncn2[C@H]1C[C@H](O)[C@@H](CO)O1	cell viability, MTT	48 h, high affinity phase	–	EC50	10.5 µM
COc1ccc(-c2cc3ccccc3[nH]2)cc1	cell growth or viability	50 µM	–	viability	85%
Cc1cc2nc(NCCCO)n(CC(=O)c3cc(C(C)(C)C)c(O)c(C(C)(C)C)c3)c2cc1C	cell growth or viability, ATP luminescence	24 h	–	IC50	6.42 µM
Nc1ccn([C@@H]2O[C@H](CO)[C@@H](O)[C@@H]2O)c(=O)n1	cell viability, MTT	48 h, high affinity phase	–	EC50	0.676 µM
Cc1ccc(S(=O)(=O)/C=C/C#N)cc1	cell growth or viability, ATP luminescence	24 h	–	IC50	2.73 µM
c1ccc(Cc2c(-c3ccccc3)n(Cc3ccccc3)c3ccccc23)cc1	cell growth or viability	50 µM	–	viability	124%
Nc1nc(Cl)nc2c1ncn2[C@@H]1O[C@H](CO)[C@@H](O)[C@@H]1F	cell viability, MTT	48 h, high affinity phase	–	EC50	0.123 µM
Cn1c(=O)c2c(nc(OCc3cn(CCc4ccccc4)nn3)n2C)n(C)c1=O	cell growth or viability, MTT	24 h	–	IC50	> 300 µM
Brc1ccc2[nH]c(-c3ccccc3)cc2c1	cell growth or viability	50 µM	–	viability	86.1%
CCCCCCn1cc(COc2nc3c(c(=O)n(C)c(=O)n3C)n2C)nn1	cell growth or viability, MTT	24 h	–	IC50	> 300 µM
Nc1ccc(-c2cc3ccccc3[nH]2)cc1	cell growth or viability	50 µM	–	viability	59.7%
[O-][S+](c1ccccc1)c1ccc2nnnn2n1 (stereo not drawn)	cell growth or viability, ATP luminescence	24 h	–	IC50	> 100 µM
FC(F)(F)Oc1ccc(-c2cc3ccccc3[nH]2)cc1	cell growth or viability	50 µM	–	viability	74.8%
CC(=O)O	mouse C10orf99 promoter luciferase, activator	concentration not given, 12 h, serum-free medium	relative to: empty vector	reporter activity	increased
[H]/N=C(\N/C(=N/[H])Nc1ccc(Cl)cc1)NC(C)C	oxygen consumption	–	–	IC50	> 10 µM
Nc1ccn([C@@H]2O[C@H](CO)[C@@H](O)C2(F)F)c(=O)n1	cell viability, MTT	48 h, low affinity phase	–	EC50	380 µM
CCCCCn1cc(COc2nc3c(c(=O)n(C)c(=O)n3C)n2C)nn1	cell growth or viability, MTT	24 h	–	IC50	> 300 µM

Some of these lines once more:
Compound	assay	conditions	how to read	endpoint	value
Nc1nc(Cl)nc2c1ncn2[C@H]1C[C@H](O)[C@@H](CO)O1	cell viability, MTT	48 h, high affinity phase	–	EC50	10.5 µM
COc1ccc(-c2cc3ccccc3[nH]2)cc1	cell growth or viability	50 µM	–	viability	85%
Cc1cc2nc(NCCCO)n(CC(=O)c3cc(C(C)(C)C)c(O)c(C(C)(C)C)c3)c2cc1C	cell growth or viability, ATP luminescence	24 h	–	IC50	6.42 µM
Nc1ccn([C@@H]2O[C@H](CO)[C@@H](O)[C@@H]2O)c(=O)n1	cell viability, MTT	48 h, high affinity phase	–	EC50	0.676 µM
